Assay results gathered from unrelated publications.
Protocols differ between the studies behind these lines. ± gives the spread as reported.
POLB I260M: DNA polymerase beta (POLB, Homo sapiens, UniProt P06746, I260M)
POLB: DNA polymerase beta (POLB, Homo sapiens, UniProt P06746)
SCTR: Secretin receptor (SCTR, Homo sapiens, UniProt P47872)
UniProt P47872, sequence (whole entry, looked up): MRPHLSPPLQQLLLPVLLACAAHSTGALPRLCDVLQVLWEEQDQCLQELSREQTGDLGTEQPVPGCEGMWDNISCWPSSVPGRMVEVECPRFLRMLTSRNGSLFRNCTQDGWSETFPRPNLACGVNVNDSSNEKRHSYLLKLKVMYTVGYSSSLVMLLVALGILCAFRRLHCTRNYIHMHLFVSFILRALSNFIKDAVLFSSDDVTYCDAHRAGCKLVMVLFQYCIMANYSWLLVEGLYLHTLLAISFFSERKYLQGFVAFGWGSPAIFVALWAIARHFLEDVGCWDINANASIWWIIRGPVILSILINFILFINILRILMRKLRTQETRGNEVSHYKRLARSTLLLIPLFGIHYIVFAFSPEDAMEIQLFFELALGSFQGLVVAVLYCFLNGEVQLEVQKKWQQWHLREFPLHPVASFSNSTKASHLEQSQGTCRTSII
T1: G-quadruplex RNA, benzofuranyl uridine in loop (Homo sapiens); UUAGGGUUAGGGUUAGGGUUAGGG
UniProt P63073, sequence (whole entry, looked up): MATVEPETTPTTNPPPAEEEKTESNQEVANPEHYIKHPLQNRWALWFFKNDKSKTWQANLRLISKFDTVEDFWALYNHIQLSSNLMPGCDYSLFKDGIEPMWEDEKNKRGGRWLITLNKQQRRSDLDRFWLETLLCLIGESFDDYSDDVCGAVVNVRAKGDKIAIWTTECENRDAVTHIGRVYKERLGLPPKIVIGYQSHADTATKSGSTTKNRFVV
UniProt P39900, sequence (whole entry, looked up): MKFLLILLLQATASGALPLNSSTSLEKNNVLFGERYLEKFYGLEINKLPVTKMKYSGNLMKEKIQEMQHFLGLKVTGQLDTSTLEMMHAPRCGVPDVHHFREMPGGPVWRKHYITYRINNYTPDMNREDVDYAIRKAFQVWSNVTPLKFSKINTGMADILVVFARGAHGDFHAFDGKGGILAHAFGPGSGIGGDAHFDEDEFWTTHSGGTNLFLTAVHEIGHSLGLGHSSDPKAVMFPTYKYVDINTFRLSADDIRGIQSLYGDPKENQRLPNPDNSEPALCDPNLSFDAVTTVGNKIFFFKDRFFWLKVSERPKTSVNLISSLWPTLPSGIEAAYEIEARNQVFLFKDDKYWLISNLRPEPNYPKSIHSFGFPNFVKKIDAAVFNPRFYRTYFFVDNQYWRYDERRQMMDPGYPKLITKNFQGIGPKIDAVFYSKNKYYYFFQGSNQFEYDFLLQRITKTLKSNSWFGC
UniProt P35968, sequence (whole entry, looked up): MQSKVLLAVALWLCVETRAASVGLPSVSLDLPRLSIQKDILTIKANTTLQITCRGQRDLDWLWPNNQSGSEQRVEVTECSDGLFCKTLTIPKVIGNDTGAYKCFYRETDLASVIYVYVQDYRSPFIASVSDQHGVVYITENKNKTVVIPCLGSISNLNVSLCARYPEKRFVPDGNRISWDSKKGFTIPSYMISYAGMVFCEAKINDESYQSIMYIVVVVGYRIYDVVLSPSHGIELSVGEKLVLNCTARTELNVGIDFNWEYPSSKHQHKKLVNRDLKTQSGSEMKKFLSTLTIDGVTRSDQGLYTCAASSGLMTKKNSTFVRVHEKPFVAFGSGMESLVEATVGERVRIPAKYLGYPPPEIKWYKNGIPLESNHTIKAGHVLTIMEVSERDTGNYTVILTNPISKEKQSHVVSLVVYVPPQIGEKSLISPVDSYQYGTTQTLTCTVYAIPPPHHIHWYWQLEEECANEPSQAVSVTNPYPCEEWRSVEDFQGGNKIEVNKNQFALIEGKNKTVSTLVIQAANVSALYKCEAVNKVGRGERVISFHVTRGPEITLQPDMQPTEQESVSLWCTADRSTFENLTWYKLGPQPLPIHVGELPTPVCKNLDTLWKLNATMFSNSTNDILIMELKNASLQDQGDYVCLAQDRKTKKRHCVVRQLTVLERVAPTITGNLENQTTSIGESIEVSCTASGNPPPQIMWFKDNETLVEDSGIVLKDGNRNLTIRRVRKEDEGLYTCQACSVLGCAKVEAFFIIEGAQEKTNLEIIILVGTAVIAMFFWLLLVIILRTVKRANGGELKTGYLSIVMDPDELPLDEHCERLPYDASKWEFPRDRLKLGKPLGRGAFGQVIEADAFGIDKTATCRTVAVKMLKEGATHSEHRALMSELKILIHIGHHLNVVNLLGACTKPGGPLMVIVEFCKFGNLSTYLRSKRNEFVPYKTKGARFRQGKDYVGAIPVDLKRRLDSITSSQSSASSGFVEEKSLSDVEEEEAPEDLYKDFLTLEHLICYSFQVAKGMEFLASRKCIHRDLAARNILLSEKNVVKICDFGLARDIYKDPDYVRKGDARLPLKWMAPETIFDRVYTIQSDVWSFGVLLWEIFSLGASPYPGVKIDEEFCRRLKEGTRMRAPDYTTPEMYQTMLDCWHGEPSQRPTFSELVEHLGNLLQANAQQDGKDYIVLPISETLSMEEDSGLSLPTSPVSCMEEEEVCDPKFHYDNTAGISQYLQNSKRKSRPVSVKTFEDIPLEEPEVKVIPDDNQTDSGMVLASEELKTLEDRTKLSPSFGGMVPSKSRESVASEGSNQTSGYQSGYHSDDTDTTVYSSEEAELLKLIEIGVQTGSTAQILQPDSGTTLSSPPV
UniProt Q7L0J3, sequence (whole entry, looked up): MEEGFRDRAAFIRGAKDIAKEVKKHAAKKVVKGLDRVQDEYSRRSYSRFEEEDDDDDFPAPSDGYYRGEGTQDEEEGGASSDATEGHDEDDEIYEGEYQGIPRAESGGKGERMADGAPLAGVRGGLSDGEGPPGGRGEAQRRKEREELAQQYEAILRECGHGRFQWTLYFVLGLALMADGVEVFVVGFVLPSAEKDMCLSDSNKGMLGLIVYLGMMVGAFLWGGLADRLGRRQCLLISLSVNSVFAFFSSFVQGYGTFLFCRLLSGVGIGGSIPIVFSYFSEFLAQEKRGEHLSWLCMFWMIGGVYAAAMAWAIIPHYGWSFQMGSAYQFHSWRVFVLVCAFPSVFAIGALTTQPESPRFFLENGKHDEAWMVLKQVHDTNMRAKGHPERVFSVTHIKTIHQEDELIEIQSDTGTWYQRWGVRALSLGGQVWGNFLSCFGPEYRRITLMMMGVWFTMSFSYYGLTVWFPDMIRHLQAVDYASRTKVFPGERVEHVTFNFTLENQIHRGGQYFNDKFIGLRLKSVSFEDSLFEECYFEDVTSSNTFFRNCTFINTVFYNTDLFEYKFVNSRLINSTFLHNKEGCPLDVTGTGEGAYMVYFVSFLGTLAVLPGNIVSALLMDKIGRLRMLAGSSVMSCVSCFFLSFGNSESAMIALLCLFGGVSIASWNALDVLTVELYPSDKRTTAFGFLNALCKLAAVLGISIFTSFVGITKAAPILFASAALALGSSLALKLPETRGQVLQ
UniProt P23204, sequence (whole entry, looked up): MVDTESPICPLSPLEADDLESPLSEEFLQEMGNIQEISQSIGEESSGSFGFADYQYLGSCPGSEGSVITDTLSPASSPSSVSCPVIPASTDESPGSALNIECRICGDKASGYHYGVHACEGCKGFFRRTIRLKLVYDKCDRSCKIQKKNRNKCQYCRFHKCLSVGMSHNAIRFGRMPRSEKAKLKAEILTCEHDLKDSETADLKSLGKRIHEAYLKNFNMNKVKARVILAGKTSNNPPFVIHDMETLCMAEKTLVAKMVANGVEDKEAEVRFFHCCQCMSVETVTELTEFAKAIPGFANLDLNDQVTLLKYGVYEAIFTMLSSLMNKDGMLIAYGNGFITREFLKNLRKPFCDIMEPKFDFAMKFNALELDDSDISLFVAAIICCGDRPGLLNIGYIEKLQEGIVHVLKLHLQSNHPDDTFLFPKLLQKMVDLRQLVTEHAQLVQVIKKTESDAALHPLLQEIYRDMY
UniProt P31941, sequence (whole entry, looked up): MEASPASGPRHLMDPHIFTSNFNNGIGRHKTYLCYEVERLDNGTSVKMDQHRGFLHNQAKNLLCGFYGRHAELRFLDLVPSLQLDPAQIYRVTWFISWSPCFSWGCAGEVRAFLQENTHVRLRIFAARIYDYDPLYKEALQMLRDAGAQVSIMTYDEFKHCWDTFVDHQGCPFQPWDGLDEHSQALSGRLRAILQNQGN
UniProt P07711, sequence (whole entry, looked up): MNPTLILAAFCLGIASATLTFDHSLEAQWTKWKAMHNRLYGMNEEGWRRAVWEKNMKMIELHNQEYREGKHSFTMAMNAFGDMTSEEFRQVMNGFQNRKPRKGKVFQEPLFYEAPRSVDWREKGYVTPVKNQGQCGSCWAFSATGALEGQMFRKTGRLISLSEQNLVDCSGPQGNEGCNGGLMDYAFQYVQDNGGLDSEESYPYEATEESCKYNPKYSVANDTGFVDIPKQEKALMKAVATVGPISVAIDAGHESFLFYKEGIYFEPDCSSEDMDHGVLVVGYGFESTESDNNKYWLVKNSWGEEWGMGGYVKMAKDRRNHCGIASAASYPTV
UniProt P10636, sequence (whole entry, looked up): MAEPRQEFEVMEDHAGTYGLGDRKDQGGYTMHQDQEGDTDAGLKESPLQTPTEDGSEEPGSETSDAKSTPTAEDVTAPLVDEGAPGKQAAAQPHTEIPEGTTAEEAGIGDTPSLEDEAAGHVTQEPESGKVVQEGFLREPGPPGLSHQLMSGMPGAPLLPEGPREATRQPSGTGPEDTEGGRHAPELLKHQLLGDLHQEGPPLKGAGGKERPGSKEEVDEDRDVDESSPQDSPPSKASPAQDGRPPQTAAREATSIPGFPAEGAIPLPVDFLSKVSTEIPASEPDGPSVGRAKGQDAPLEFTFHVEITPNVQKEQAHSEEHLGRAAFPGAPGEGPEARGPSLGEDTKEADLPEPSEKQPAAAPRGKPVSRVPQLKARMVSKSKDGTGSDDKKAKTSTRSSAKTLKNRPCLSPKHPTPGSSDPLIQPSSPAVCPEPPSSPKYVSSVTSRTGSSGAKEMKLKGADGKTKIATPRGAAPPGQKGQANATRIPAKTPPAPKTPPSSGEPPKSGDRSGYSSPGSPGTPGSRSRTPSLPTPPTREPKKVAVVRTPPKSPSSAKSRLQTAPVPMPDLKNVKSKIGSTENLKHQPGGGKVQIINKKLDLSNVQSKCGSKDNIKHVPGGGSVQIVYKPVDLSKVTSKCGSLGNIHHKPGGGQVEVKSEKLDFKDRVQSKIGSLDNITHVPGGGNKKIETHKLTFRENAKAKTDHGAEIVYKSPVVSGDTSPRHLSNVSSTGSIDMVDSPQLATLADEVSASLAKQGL

For `[3H]C([3H])([3H])c1cnccc1CN1C[C@@H](c2cc(F)c(F)c(F)c2)CC1=O`, “loss of specific binding” read roughly 55.9% (SV2A (Homo sapiens, UniProt Q7L0J3); radioligand binding; human Alzheimer disease, frontal cortex P2 fraction; 5 nM; baseline: control brains).
`N#Cc1ccccc1Oc1ccc(Cl)cc1O` has a residence time of 30 min (Enoyl-[acyl-carrier-protein] reductase [NADPH] FabI (Staphylococcus aureus, UniProt Q6GI75); binding).
`N#Cc1cccc(-c2ccc(=O)n(Cc3cccc(-c4ncc(OCC5CCN(CC(=O)NCCOCCNc6ccc7c(c6)C(=O)N(C6CCC(=O)NC6=O)C7=O)CC5)cn4)c3)n2)c1` (stereo not shown) gave a Dmax of 99% (MET (Homo sapiens, UniProt P08581); degrader; EBC-1).
The kpol of `Cc1cn([C@H]2C[C@H](O)[C@@H](COP(=O)(O)OP(=O)(O)C(Cl)(Cl)P(=O)(O)O)O2)c(=O)[nH]c1=O` is reported as 0.66 ± 0.09 s⁻¹ (POLB I260M; nucleotide incorporation rate, substrate, single-turnover kinetics; single-nucleotide gapped DNA; 37 °C, I260M, correct incorporation, added: dTTP opposite template A).
`CCC1CC2C(C)=CC3C(=O)CCCC3C=CC(C)=CC2C(=O)O1` (stereo not shown) — result for “R3 tau oligomer reduction”: 48.3% (Microtubule-associated protein tau, R3 peptide oligomers (MAPT, Homo sapiens, UniProt P10636); dot blot; 500 µM).
The activation of `CN(C)c1ccc(/C=C/CNc2ccnc3cc(Cl)ccc23)cc1` is reported as no more than 1.5 fold (Nuclear receptor subfamily 4 group A member 2, ligand binding domain (Homo sapiens, UniProt P43354); reporter gene, agonist, Gal4-Nurr1 hybrid reporter; HEK-293T; 30 µM, crude library product; baseline: vehicle (0.1% DMSO)).
For `CS(=O)(=O)CCC1NC(=O)C(Cc2ccco2)NC(=O)C(CC2CC2)NC(=O)C=CC(=O)NC(C(N)=O)CCNC1=O` (stereo not shown), the enrichment factor was 0.66 (KDR (Homo sapiens, UniProt P35968); DNA-templated library selection; one selection round).
`Nc1nc2c(ncn2[C@H]2C[C@H](O)[C@@H](COP(=O)(O)OP(=O)(O)[C@@H](F)P(=O)(O)O)O2)c(=O)[nH]1` has a kpol of 0.16 ± 0.01 s⁻¹ (POLB; substrate, quench-flow kinetics; pH 8.0, 37 °C, misincorporation opposite T in gapped DNA).
For `CC(=O)OC[C@H]1O[C@@H](Oc2cc(OC(C)=O)cc3oc(C)cc(=O)c23)[C@H](OC(C)=O)[C@@H](OC(C)=O)[C@@H]1OC(C)=O`, the induction was 2.25 (Ppara (Mus musculus, UniProt P23204); reporter gene, agonist, luciferase; HepG2; 50 µg/mL).
`Nc1nc2c(ncn2[C@H]2C[C@H](O)[C@@H](COP(=O)(O)OP(=O)(O)C(Cl)(Cl)P(=O)(O)O)O2)c(=O)[nH]1` has a kpol/Kd of 0.43 ± 0.16 M⁻¹ s⁻¹ (POLB; nucleotide incorporation, substrate, single turnover kinetics; dG misincorporation opposite A).
`COc1ccc(-c2cc(C(F)(F)F)nc(SCC(=O)N(C)c3ccccc3)n2)cc1`: “cooperativity factor alpha” 6 (SCTR; affinity cooperativity, allosteric modulator; cells overexpressing SCTR; added: secretin(3-27)).
For `Nc1nc2c(ncn2C2CC(O)C(COP(=O)(O)OP(=O)(O)C(Cl)P(=O)(O)O)O2)c(=O)[nH]1` (mixture of isomers), the kpol/Kd was 7 ± 4 M⁻¹ s⁻¹ (POLB; nucleotide incorporation, substrate, single turnover kinetics; dG misincorporation opposite A).
For `O=C1c2ccc(O)c3c2C(=[O+][Co-2]2([O]3)[O]c3c(O)ccc4c3C(=[O+]2)c2c(O)ccc(O)c2C4=O)c2c(O)ccc(O)c21`, “minimum inhibitory concentration” read 40 µM (DNA topoisomerase 1 (TOP1, Homo sapiens, UniProt P11387); DNA relaxation, inhibitor, agarose gel).
`Nc1ncnc2c1ncn2[C@@H]1O[C@H](CO)[C@@H](O[C@H]2O[C@H](CO)[C@@H](OP(=O)(O)O)[C@H](OP(=O)(O)O)[C@H]2O)[C@H]1O` has a ΔpKd of 0.48 ± 0.12 (Inositol 1,4,5-trisphosphate-gated calcium channel ITPR1, IP3-binding core (Itpr1, Rattus norvegicus, UniProt P29994, R568Q); binding, 3H-IP3 competition; IP3-binding core, unit not given; baseline: R568Q over wild type).
`[11CH3]c1ccc2nc(C3CCC3)n(-c3ccc4[nH]ncc4c3)c2n1` gave a BPND reduction of 93 to 99% (Voltage-dependent calcium channel gamma-8 subunit (Rattus norvegicus, UniProt Q8VHW5); PET; Sprague-Dawley rat; dose not given, added: blocker pretreatment 1 mg/kg; baseline: baseline).
For `OC[C@H]1O[C@@H](Sc2ccccc2)[C@H](O)[C@@H](O)[C@@H]1O`, the fluorescence ratio was 1.15 (SLC5A1 (Homo sapiens, UniProt P13866); membrane depolarization, substrate, FRET; CHO expressing hSGLT1; 10 µM; baseline: non-transfected CHO cells).
`COc1cc2c(cc1OC)C(c1ccc(F)cc1F)N(CCCOc1ccc(CCC(=O)O)cc1)CC2` (stereo not shown): transactivation “increased” (PPARG (Homo sapiens, UniProt P37231, S273A); agonist, reporter gene; CHO; 10 µM, Ser273 mutant; baseline: wild type).
`COc1ccc(CNc2nc(-c3ccc(OC)c(OC)c3)cc(C(F)(F)F)n2)cc1` has an Emax of 27% (SCTR; cAMP, agonist).
`C[n+]1cn(C2OC(COP(=O)([O-])OP(=O)(O)OP(=O)(O)OCC3OC(n4cnc5c(=O)[nH]c(N)nc54)C(O)C3O)C(O)C2O)c2nc(NCc3cc(-c4ccccc4)no3)[nH]c(=O)c21` (stereo not shown) has a relative affinity of roughly 5 (Eif4e (Mus musculus, UniProt P63073); differential scanning fluorimetry; baseline: m7GpppG).
The kpol of `Nc1nc2c(ncn2[C@H]2C[C@H](O)[C@@H](COP(=O)(O)OP(=O)(O)C(F)(F)P(=O)(O)O)O2)c(=O)[nH]1` is reported as 0.013 ± 0.002 s⁻¹ (POLB I260M; nucleotide incorporation rate, substrate, single-turnover kinetics; single-nucleotide gapped DNA; 37 °C, I260M, misincorporation, added: dGTP opposite template A).
`C=Cc1c(C)c2cc3nc(c4c5[nH]c(cc6nc(cc1[nH]2)C(C)=C6CC)c(C)c5C(=O)C4)[C@@H](CCC(=O)NCC(=O)N1CCC[C@H]1C(=O)N[C@@H](CC(C)C)C(=O)NCC(=O)N[C@@H](Cc1ccccc1)C(=O)N[C@@H](CCCNC(=N)N)C(=O)N[C@H](C(=O)NCC(=O)N[C@@H](CCCCNC(=O)CCCN(C)c1ccc(/N=N/c2ccc4nc5ccc(N(CC)CC)cc5[n+](-c5ccccc5)c4c2)cc1)C(N)=O)C(C)C)[C@@H]3C` has a fluorescence activation of 20% (MMP12 (Homo sapiens, UniProt P39900); cleavage, substrate; concentration not given, 24 h, 37 °C).
`NCCOc1cc(C(=O)Nc2cc(OCCN)c3ccccc3n2)nc(C(=O)Nc2cc(OCCN)c3ccccc3n2)c1` gave a Kd of 268 nM (T1, G-quadruplex RNA, benzofuranyl uridine in loop (Homo sapiens); fluorescence titration; pH 7.5, 20 °C, NaCl 100 mM, apparent, parallel G-quadruplex).
For `Cn1cncn1.[Ru+2].c1cc(-c2ccc3ccccc3n2)nc(-c2ccc3ccccc3n2)c1.c1ccc2cc3nc4c5cccnc5c5ncccc5c4nc3cc2c1`, the kinact/KI was less than 10 M⁻¹ s⁻¹ (Procathepsin L (CTSL, Homo sapiens, UniProt P07711); irreversible inhibitor; pH 5.5, green light, 10 min, added: Z-Phe-Arg-AMC).
`COc1ccc(-c2cc(C(F)(F)F)nc(NCc3ccccc3)n2)cc1OC`: “increase of binding” 4.7% (SCTR; Fluo-Sec binding, TR-FRET; HEK293 membranes, SNAP-tagged receptor; concentration not given, added: Fluo-Sec).
`COc1ccc(-c2cc(C(F)(F)F)nc(S(=O)(=O)CCC(=O)Nc3ccc(C)cc3)n2)cc1` has a kinact of 0.00056 s⁻¹ (WRN (Homo sapiens, UniProt Q14191); enzyme activity, inhibitor).
`Brc1ccccc1-c1nnc(CSc2nnnn2-c2ccccc2)o1`: IC50 “inactive” (CRHR2 (Homo sapiens, UniProt Q13324); calcium signal, antagonist; without CRF-binding protein, added: CRF at EC80).
With `O=C(O)[C@H]1O[C@@H](O[C@@H]2c3cc4ccc5cccc6c7ccccc7c(c3C=C[C@H]2O)c4c56)[C@H](O)[C@@H](O)[C@@H]1O` the kcat was 0.00167 ± 0.000333 s⁻¹ (UGT1A8 (Homo sapiens, UniProt Q9HAW9); glucuronidation, substrate; UGT-expressing HEK293 homogenate; normalized to UGT expression).
`O=C(O)c1cc(-c2ccc(CN3CCCC(CO)C3)o2)ccc1Cl` (stereo not shown) has a signal attenuation of 36 ± 11.6% (DNA dC->dU-editing enzyme APOBEC-3A (Homo sapiens, UniProt P31941); binding, 1H CPMG NMR).
